Experimental data collected from several papers.
Protocols differ between the studies behind these lines. Numbers after ± are the reported error.
UniProt P00519, sequence (whole entry, looked up): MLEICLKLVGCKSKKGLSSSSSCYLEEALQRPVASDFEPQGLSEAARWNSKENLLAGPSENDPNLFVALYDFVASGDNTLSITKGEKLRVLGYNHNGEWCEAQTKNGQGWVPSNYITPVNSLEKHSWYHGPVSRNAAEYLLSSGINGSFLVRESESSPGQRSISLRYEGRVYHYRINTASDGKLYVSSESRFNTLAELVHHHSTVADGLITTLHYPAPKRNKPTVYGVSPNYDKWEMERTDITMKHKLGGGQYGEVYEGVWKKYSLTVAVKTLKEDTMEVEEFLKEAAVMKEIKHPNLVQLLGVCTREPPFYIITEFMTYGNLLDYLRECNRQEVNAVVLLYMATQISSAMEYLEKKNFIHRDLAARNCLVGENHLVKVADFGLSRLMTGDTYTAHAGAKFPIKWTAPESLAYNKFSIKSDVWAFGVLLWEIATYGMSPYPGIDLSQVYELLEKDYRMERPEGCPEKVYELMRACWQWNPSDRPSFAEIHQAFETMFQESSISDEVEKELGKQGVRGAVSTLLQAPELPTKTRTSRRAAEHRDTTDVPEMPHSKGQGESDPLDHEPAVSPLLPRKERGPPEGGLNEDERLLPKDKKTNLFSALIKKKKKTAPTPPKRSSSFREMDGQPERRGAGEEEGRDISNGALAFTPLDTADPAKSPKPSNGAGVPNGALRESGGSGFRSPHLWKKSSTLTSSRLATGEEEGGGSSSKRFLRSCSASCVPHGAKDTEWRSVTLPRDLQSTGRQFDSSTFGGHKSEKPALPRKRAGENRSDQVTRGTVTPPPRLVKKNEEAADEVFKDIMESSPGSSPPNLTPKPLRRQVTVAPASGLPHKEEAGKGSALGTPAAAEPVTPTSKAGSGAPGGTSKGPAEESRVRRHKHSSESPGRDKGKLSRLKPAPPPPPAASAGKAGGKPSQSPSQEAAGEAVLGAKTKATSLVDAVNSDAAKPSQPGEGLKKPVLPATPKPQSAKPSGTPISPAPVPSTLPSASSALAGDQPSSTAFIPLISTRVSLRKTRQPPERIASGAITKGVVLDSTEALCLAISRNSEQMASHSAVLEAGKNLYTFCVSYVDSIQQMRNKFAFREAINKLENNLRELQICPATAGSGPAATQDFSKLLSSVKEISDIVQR
UniProt O96017, sequence (whole entry, looked up): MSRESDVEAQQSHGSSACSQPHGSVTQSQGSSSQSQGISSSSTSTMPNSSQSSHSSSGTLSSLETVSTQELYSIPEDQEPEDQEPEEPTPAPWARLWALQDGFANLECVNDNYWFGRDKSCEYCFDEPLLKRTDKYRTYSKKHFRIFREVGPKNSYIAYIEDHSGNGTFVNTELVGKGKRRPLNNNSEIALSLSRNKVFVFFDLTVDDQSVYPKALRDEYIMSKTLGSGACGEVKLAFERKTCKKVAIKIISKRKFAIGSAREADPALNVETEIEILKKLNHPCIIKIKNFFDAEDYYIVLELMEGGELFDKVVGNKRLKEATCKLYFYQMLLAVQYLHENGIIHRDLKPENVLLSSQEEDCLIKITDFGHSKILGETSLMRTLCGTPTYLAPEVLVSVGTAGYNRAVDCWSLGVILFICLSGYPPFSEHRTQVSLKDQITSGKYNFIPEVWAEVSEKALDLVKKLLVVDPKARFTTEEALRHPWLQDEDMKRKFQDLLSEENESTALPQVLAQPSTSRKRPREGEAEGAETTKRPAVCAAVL

SMILES | target or system | test | system | conditions | scale | quantity | result
CC[C@H](C)[C@H](NC(=O)[C@H](CCCCN)NC(=O)CNC(=O)[C@H](CC(C)C)NC(=O)[C@H](Cc1ccccc1)NC(=O)[C@H](CCCCN)NC(=O)[C@H](CO)NC(=O)[C@H](Cc1ccccc1)NC(=O)[C@H](Cc1c[nH]c2ccccc12)NC(=O)[C@H](CCC(N)=O)NC(=O)[C@@H](NC(=O)[C@H](Cc1ccccc1)NC(=O)CCCCCNC(=O)CN1CCN(CC(=O)O)CCN(CC(=O)O)CCN(CC(=O)O)CC1)C(C)C)C(=O)N[C@@H](CCC(=O)O)C(=O)N1CCC[C@H]1C(=O)N[C@@H](CC(=O)O)C(=O)N[C@H](C(=O)N[C@@H](CO)C(=O)N[C@@H](CCC(N)=O)C(=O)N[C@H](C(=O)N[C@@H](CCC(N)=O)C(=O)N[C@@H](CC(=O)O)C(=O)N1CCC[C@H]1C(=O)N[C@@H](CC(N)=O)C(=O)N[C@@H](CC(=O)O)C(=O)N[C@@H](CCC(N)=O)C(=O)N[C@@H](Cc1ccc(O)cc1)C(=O)N[C@@H](CCC(=O)O)C(=O)N1CCC[C@H]1C(=O)N[C@@H](Cc1ccccc1)C(=O)O)C(C)C)C(C)C [copper-64 labelled] |  |  | C57BL/6 male mouse, tumour-naive, brain | 0.5 h |  | tissue uptake | 0.33 ± 0.06 %ID/g
CC(C)C[C@@H](NC(=O)[C@@H](CCCNC(=N)N)NC(=O)[C@@H](Cc1c[nH]cn1)NC(=O)[C@@H](Cc1c[nH]c2ccccc12)NC(=O)[C@@H](Cc1c[nH]cn1)NC(=O)[C@@H](Cc1ccccc1)NC(=O)[C@H](NC(=O)[C@@H](Cc1ccc(O)cc1)NC(=O)CNC(=O)CNC(=O)CCOCCOCCOCCNC(=O)CN1CCN(CC(=O)O)CCN(CC(=O)O)CC1)[C@H](C)O)C(=O)N[C@H](CC(N)=O)C(=O)N1CCC[C@@H]1C(=O)O [gallium-68 labelled] |  | gamma counting | C57BL/6 mice, male, lung | intravenous, 1.85 MBq, 120 min |  | tissue uptake | 0.67 ± 0.1 %ID/g
O=C1NC(=O)c2c1c1cc(F)c[n+]3c1c1c2c2cc(O)ccc2[n]1[Ru-4]312([N]=C=S)[S+]3CC[S+]1CC[S+]2CC3 (stereo not drawn) | ABL1 (Homo sapiens, UniProt P00519) | enzyme activity |  | 100 nM, human enzyme, added: 10 µM ATP | reference: untreated | remaining activity | 96%
CS(C)(=O)=Nc1ccc(-c2ccc(-c3nc4cc(O[C@@H]5CO[C@H]6[C@@H]5OC[C@H]6O)[nH]c4cc3F)cc2)cc1 | CHEK2 (Homo sapiens, UniProt O96017) | enzyme activity, inhibitor |  | 10 µM |  | inhibition | 11%
O=C([O-])CNC(=O)CN1CCN(CC(=O)NCC(=O)[O-])CCN(CC(=O)NCC(=O)[O-])CCN(CC(=O)NCC(=O)[O-])CC1.[177Lu+3] |  |  | Sprague-Dawley rat, brain | intravenous (tail vein), dose not given, 2 h |  | tissue uptake | 0.003 ± 0.001 % injected dose/g
O=C1NC2(CC2)COc2ncc(F)cc2[C@H]2COCCN2c2ccn3ncc1c3n2 |  |  | Sprague-Dawley rat, female, heart | oral, 2.5 mg/kg/day, 4 weeks dosing, end of recovery |  | organ-to-body weight ratio | 0.358 ± 0.025%
CC[C@H](C)[C@H](NC(=O)[C@H](CCCNC(=N)N)NC(=O)[C@H](CCCCN)NC(=O)[C@H](Cc1ccc(O)cc1)NC(=O)[C@H](CC(=O)O)NC(=O)[C@H](C)NC(=O)CNC(=O)CCOCCOCCOCCNC(=O)CN1CCN(CC(=O)O)CCN(CC(=O)O)CCN(CC(=O)O)CC1)C(=O)N[C@H](C(=O)N[C@@H](CC(C)C)C(=O)N[C@@H](CCCCN)C(=O)N[C@H](C(=O)N[C@@H](CC(N)=O)C(N)=O)C(C)C)[C@@H](C)O [copper-64 labelled] |  | ex vivo gamma counting | C57BL/6J male mice, B16-F10 tumour, liver | intravenous, 1.85 MBq, 40 min |  | tissue uptake | 3.7 ± 0.954 %ID/g
C[C@H](O)[C@@H](NC(=O)[C@H]1CCCN1C(=O)[C@@H](CCCCN)NC(=O)[C@@H](CO)NC(=O)[C@@H](Cc1ccc(O)cc1)NC(=O)[C@@H](CC(N)=O)NC(=O)CCOCCOCCOCCNC(=O)CN1CCN(CC(=O)O)CCN(CC(=O)O)CCN(CC(=O)O)CC1)C(=O)N[C@H](CC(=O)O)C(=O)N[C@H](CCCNC(=N)N)C(=O)N[C@H](CCC(N)=O)C(=O)N[C@H](Cc1ccc(O)cc1)C(=O)N[C@H](Cc1c[nH]cn1)C(=O)N[C@H](Cc1ccccc1)C(N)=O [gallium-68 labelled] |  |  | BALB/c nude mice U-87 MG tumour, kidney | intravenous, 1.85 MBq, 2 h, radiolabelled |  | tissue uptake | 5.2 ± 0.31 %ID/g
CN1Cc2cc(Cl)ccc2-n2c(nnc2C2CCN(c3cccc([18F])n3)CC2)C1 |  |  | C57BL/6 mouse male, spleen | intravenous, dose not given, 30 min, added: blocking agent 10 mg/kg |  | tissue uptake | 4.17 ± 1.37 %ID/g
COc1ccccc1-c1n[nH]c2nc(NC3CCN(C(=O)Cc4ccc(F)cc4F)CC3)ncc12 |  | bead binding, competition bead pull-down, refers to: LINJ.10.0480 | Leishmania donovani axenic amastigote extract | 10 µM | reference: vehicle | relative abundance | 0.94
CCCC[C@H]1C(=O)N(C)[C@@H](CCCC)C(=O)N[C@@H](CCCNC(=O)CN2CCN(CC(=O)O)CCN(CC(=O)O)CCN(CC(=O)O)CC2)C(=O)N[C@H](C(=O)NCC(N)=O)CSCC(=O)N[C@@H](Cc2ccc(O)cc2)C(=O)N(C)[C@@H](C)C(=O)N[C@@H](CC(N)=O)C(=O)N2CCC[C@H]2C(=O)N[C@@H](Cc2c[nH]cn2)C(=O)N[C@@H](CC(C)C)C(=O)N(C)CC(=O)N[C@@H](Cc2c[nH]c3ccccc23)C(=O)N[C@@H](CO)C(=O)N[C@@H](Cc2c[nH]c3ccccc23)C(=O)N1C [gallium-68 labelled] |  |  | NOD/SCID mice with CHO-hPD-L1 xenograft, muscle | 120 min post injection |  | tissue uptake | 0.85 ± 0.36 %ID/g
CSCC[C@H](NC(=O)CNC(=O)[C@H](CCCCN)NC(=O)[C@H](CC(C)C)NC(=O)[C@@H]1CCCN1C(=O)[C@H](CO)NC(=O)[C@H](Cc1c[nH]cn1)NC(=O)[C@H](Cc1c[nH]c2ccccc12)NC(=O)[C@H](CCCNC(=N)N)NC(=O)[C@H](CC(C)C)NC(=O)[C@H](CCCNC(=N)N)NC(=O)[C@H](Cc1c[nH]c2ccccc12)NC(=O)[C@H](CS)NC(=O)CCCCCNC(=O)CN1CCN(CC(=O)O)CCN(CC(=O)O)CCN(CC(=O)O)CC1)C(=O)O [copper-64 labelled] |  | ex vivo biodistribution | male C57BL/6J mice, testis | intravenous, 1.85 MBq, 0.5 h, B16-F10 tumour-bearing |  | tissue uptake | 1.33 %ID/g

Excerpt of the above:
SMILES | target or system | test | system | conditions | scale | quantity | result
O=C([O-])CNC(=O)CN1CCN(CC(=O)NCC(=O)[O-])CCN(CC(=O)NCC(=O)[O-])CCN(CC(=O)NCC(=O)[O-])CC1.[177Lu+3] |  |  | Sprague-Dawley rat, brain | intravenous (tail vein), dose not given, 2 h |  | tissue uptake | 0.003 ± 0.001 % injected dose/g
